Measured values collected from several papers.
Every numbered part comes from another study and shows a few of its results, in no order. Positions count from the first letter of the parent shown.

Series 1
Target: RNA binding protein fox-1 homolog 2, RRM domain, GST-SBP tag (RBFOX2, Homo sapiens, UniProt O43251-10, residues 100-194)
Method: RNA Bind-n-Seq
Molecule type: RNA
Matrix: in vitro
Tested at: 365 nM
Setting: natural RNA segment, single round, ends assumed
Reference: no-protein control
Direction: higher = stronger binding
Measurement: RBNS enrichment (R)
Construct (chain): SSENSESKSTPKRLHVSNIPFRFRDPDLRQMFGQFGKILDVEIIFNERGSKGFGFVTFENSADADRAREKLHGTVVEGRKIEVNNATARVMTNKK
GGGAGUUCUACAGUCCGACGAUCUGAGAAAAUAGUUAACAAUUACUGUCAGGUGUCAUCACUGUUCAAAAGGUAAGCACAUUUAGAAUUUUGUUCUUGACAGUUAACUGACUAAUCUUACUUCCACAAAAUAUUGGAAUUCUCGGGUGCCAA: 0.231
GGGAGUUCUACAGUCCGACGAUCUUUGCCUGGCUCUGCUCUUUAGACUCCAGAUCCCUACCCCUCAGCAACUAGCUCCCCUGUCGGCCAGCUAAGAGAGCUGGGACAGUGGAGGCUGGCAGAAGCUGAGACGUUGGAAUUCUCGGGUGCCAA: 0.317
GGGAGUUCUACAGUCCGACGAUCUGCUAUGUGCAGGCAGGCAGGGGUUAUCUUCCUGGGUCUCACAGACUUUCAUGGUUUUCCUUACCCCUUCUUUUCUUUUUCUUCCUCAUUUUGUUCCUUCAUAGGAAAAAUGGAAUUCUCGGGUGCCAA: 0.445
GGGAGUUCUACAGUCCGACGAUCAUGGGAGCUUACUGGGUUAGAAGUCAGGACACUGAGUUUCAAUCCUCACUUAGUAGUCUGUGGCCCUCUUUGGCACAUUAACCUCCCUCCUUGAUCCUCAGGCUGCACCUUGGAAUUCUCGGGUGCCAA: 0.272
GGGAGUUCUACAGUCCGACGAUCUAAUCUCAACUAAAGAUAUAGUUCUGUGGUAGCCAUUGUUUUACAAUGAAAUAACUGCAACUAGAGAAAAAAAACUGUAUAAAAACAUUAAAUUGUCAGUAUUUUUGUAAUGGAAUUCUCGGGUGCCAA: 0.5
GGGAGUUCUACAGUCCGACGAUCUUAAUUUAUGUCUGGAGCCUGGCUACUCUGCAUUUGGGAUUGGGGAUGCUGGGUGGGUGUGUGGUCCAUGUUCAGCGUUCUAGCAACACGUGUGUGUGUGUGUGUGUAAAUGGAAUUCUCGGGUGCCAA: 2.81
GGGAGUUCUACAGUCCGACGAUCUGGCCUGUACCAUAUUAUGGAGAACUGUUAACUGCUUAAUUGGGUAAUUUUCAAAGAAAGUGAUGUUUGUUAAAUGGGGCGAAAUAAGAAGUUAAAUUUGAAAGUGAAUGUGGAAUUCUCGGGUGCCAA: 0.937
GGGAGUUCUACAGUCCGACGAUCGACACGGCCUCCUGUUGGAGUCCCAUUUUCUCCAUCAGGGCACGUGGGCGGCUUCCUCAAGCCCGGAGGAGCUCCCAGGCGCACAGGGGCCGCCGGUAACAGGGGCCGCCUGGAAUUCUCGGGUGCCAA: 0.525
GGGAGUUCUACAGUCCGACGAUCGACAAAUCACCACCACCAGUGUUAAGUGCUUCUGGAUUCAUGGGUGAGUUCCCUGGGCAGCCCCCAGGAAGGCCUUCCAGAUCUGGCUCCAGGGUCACCACCUGUCACAGUGGAAUUCUCGGGUGCCAA: 0.162
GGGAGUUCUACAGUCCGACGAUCUGCCCAGUGAAAGACCUCAAGUCUGCCUCCAGCCAUGCCCAAGGCAGGAACCCUGGAAGAGAAGCGCACAUUUGGGAAGAGCACAUGCAGAUCCAGGCCUGUGGCUCGGCUGGAAUUCUCGGGUGCCAA: 0.6
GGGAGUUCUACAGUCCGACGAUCGACUUUAUUGGAAUCUGGAGAGUUUAACUGCCUUCUCUUGGUCUCCUCACUUACUUCUUAUGAAGUUGGCAUUACCUGAGACUCUUAGCUGUGAUUAGGUACAAGCUUACUGGAAUUCUCGGGUGCCAA: 0.443
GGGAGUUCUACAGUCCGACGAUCCCUGAGCACUAGCCGGAGUCUGGGCACAGUGUCUGAGACCACACCAUAGGCUGCGUGAGUGUGAGUGUGUAUGGAAGUGUGUGCGCAAGUGUGUGCGCAUGCAUGAGUGCUGGAAUUCUCGGGUGCCAA: 1.2

Series 2
Target: Interferon regulatory factor 5, full length, phosphomimetic (IRF5, Homo sapiens, UniProt Q13568-2, residues 1-514, S451D/S453D/S456D/S462D)
Method: protein-binding microarray
Molecule type: double-stranded DNA, one strand shown
Matrix: in vitro
Tested at: 940 nM top
Setting: 60-bp whole probe
With: salmon DNA 0.4 mg/ml
Reference: random background probes
Direction: higher = stronger binding
Measurement: fitted relative affinity
Shared flanks, not repeated: GCCTAGCAC … GTCTTGATTCGCTTGACGCTGCTG
GACAGTTTCGGGTTTCGGGACGTGCTA: 9.64 z-score
GACGGTTTCGGATTTCGGGACGTGCTA: 6.72 z-score
GACGGTTTCCTGCTCCTGACGTGCTAG: 0.76 z-score
GACGCACTGCTTATCCTGACGTGCTAG: -0.192 z-score
GAAGGACTGCTTATCCTGACGTGCTAG: -0.197 z-score
GAGGGTATCCTTATCCTGACGTGCTAG: -0.275 z-score
TTAGATTTCAATATCGATTAGTGCTAG: 0.888 z-score
GACGATTTCAGTTCCGAGGCGTGCTAG: 1.11 z-score
GACGATATAAGACTGGAGACGTGCTAG: -0.572 z-score
GACGGAATGGGGACTGGGGACGTGCTA: 0.0707 z-score
TCATGTTTCCTTGTACGACTGTGCTAG: 0.868 z-score
GACGGTATCCTTTCCCTGACGTGCTAG: 0.57 z-score
GTGGAAATCAGTATGTTCCCGTGCTAG: -0.436 z-score
TTAGGTATCCTTCTCTTTTAGTGCTAG: 1.07 z-score
GAAGGTATCCTACTGCTGACGTGCTAG: -0.167 z-score
TTAGGTCTCGGTTTCCGTTAGTGCTAG: 5.48 z-score

Series 3
Target: RING finger protein unkempt homolog, zinc fingers 1-6, GST-SBP tag (UNK, Homo sapiens, UniProt Q9C0B0, residues 30-357)
UniProt Q9C0B0, sequence (30-357, looked up): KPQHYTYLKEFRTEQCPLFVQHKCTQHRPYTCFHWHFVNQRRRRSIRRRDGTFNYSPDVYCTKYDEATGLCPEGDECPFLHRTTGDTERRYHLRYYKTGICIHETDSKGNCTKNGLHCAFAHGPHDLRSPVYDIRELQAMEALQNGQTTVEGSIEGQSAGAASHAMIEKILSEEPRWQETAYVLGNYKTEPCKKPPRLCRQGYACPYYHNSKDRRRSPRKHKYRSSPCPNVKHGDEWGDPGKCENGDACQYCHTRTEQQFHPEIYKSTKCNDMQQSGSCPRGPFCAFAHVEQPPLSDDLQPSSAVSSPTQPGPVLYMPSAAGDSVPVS
Method: RNA Bind-n-Seq
Molecule type: RNA
Matrix: in vitro
Tested at: not given
Setting: RNA with constant flanks, human and mouse sites, ends assumed
Reference: input RNA pool
Direction: higher = stronger binding
Measurement: bound/input enrichment
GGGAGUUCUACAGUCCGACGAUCGUUAUGUUGCCCUGUCUUUCCUCUUUGUGCUGUCUUUGAUCUGUUUGCUUGGCUUAGUAUUACAAAAAAACAAGGACAAUAAUAUAUUCCAAGCUGGUCCCCAAGAUUCCGUUCAGGCUGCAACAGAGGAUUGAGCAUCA: 0.673 ratio
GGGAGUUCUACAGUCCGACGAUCGUGCUUCACAUUUGUAUGUGUGUAGACUGUAACUUUUUUUCAGUUCAUAUGCAGAACGUAUUUAGCCAUUACCCACGUGACACCACCGAAUAUAUUACUGAUUUAGAAGCAAAGAUUUCACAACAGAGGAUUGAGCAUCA: 2 ratio
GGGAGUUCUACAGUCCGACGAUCGAGACGGGAUAUGAGGAUCAAUGAUGCAGACUGCUGGGUUCGAUGAAGCUGGGCAUUUAUAACUAGAUUCAUUAAGGAAUACAAAGAAAAUAUUUAAAGGGAUCAAUAAUGGUGUCUUCUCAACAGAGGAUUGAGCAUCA: 0.692 ratio
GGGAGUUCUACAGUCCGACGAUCUCCGACCUGCAGGGGUAGCGCGGCCUCGGCGCCGGAGACCCGCGCGCUGUCUGGGGCUGCGGUGGCGUGGGGAGGGCGCGGCCCCCGGACGCCCCGAGGAAGGGGCACCUCACCGCCCCCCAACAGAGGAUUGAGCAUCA: 1.32 ratio
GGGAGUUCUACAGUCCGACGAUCUUUCAUCCAGAGUUUGCUAAUCCAGACUUUACACAACCUAUCUCAGAAGUUGUAGAUGAAGUAAUUCAGAAUUGUCCUAUUGAUGUCAGACGUCCUCUCUACAAGAAUAUUGUCCUCUCUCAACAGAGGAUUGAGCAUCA: 0.131 ratio
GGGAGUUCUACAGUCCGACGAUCGCUAUGCAGCUAUAUUCUGUAGAUAGGAAAGUGUCUCAGCCCAUUGAAGGACAUGCAGCUAGCUUUGCACAGUUUAAGAUGGAAGGAAAUGCAGAAGAAUCAACGUUAUUUUGUUUUGCACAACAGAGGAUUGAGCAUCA: 0.948 ratio

Series 4
Target: ABI1, truncated, D143A, DHFR fusion (Arabidopsis thaliana)
Method: DHFR PCA, deep sequencing
Matrix: yeast
Setting: methotrexate growth selection, single substitutions
With: (+)-ABA 0.032 µM
Reference: wild-type fitted maximum
Direction: higher = stronger binding
Measurement: relative binding score
Parent: PYL1, truncated, DHFR fusion (Arabidopsis thaliana); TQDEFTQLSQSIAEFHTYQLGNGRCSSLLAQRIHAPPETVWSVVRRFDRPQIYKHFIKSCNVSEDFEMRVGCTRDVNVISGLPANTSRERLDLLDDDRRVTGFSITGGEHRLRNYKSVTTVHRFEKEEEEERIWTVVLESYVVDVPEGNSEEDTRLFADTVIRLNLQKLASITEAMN; partner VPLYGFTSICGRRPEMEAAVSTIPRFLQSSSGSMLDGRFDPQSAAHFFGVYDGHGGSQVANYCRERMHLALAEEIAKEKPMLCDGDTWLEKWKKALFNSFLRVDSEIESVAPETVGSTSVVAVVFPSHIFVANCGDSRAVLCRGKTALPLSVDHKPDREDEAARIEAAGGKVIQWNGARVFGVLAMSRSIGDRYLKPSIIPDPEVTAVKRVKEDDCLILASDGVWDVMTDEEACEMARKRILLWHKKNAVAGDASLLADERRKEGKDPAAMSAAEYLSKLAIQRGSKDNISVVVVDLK
D153K: -2.14%
T86A: 9.51%
S140K: 1.79%
M68F: 4.9%
D75P: -1.38%
A175R: 21.4%
E139W: 4.3%
F124S: 2.9%
S11P: 43.8%
W41F: -15.7%
D48G: 6.55%
A30Y: 11.1%
G71A: 2.58%
D159V: 1.22%

Series 5
Target: Histone acetyltransferase KAT6A, both winged helices, GST fusion (KAT6A, Homo sapiens, UniProt Q92794, residues 1-181)
Method: protein binding microarray
Molecule type: double-stranded DNA, one strand shown
Matrix: in vitro
Tested at: not given
Setting: 8-mer, flanks averaged, mean of 2 arrays, mostly near background
Reference: not given
Direction: higher = stronger binding
Measurement: E-score
Construct (chain): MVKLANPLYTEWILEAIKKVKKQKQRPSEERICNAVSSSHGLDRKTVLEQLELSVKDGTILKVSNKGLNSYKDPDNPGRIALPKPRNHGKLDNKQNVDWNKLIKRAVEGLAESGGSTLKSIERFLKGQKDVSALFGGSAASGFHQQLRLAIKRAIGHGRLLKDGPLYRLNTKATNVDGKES
GCGGAAAC: 0.254
AACACCTG: -0.141
AGATTGTA: -0.246
CGGGAAAC: 0.228
TAAAGATA: -0.0623
AGTGGAAA: -0.116
CGACAGCC: 0.0002
AAACGTCC: 0.0424
CCTAAAGA: -0.0752
ACGAGTCA: -0.126
ACGATCGA: -0.0252
ATTCTTGG: -0.0407
CCATACCA: -0.129
GAGTAATA: 0.0324
GAAGGGTC: -0.0528
ACGCCACA: 0.0356
CGGTACAA: 0.206
CAGTATCC: -0.0263
AATCTCGT: -0.0939

Series 6
Target: Sal-like protein 4, full length isoform B (SALL4, Homo sapiens, UniProt Q9UJQ4-2, residues 1-616)
Method: universal PBM
Molecule type: double-stranded DNA, one strand shown
Matrix: in vitro
Tested at: not given
Setting: 8-mer, flanks averaged, mean of replicates
Direction: higher = stronger binding
Measurement: E-score
GAGATTCC: -0.182
AAGTCCCA: -0.0695
AAAAAAGA: 0.223
AGTTTATA: 0.362
CGAACTCG: -0.266
AAACCGAG: -0.0387
AGAATTCG: 0.0309
TATGGCAA: 0.222
CTGAGAGC: -0.185
AACTCCCA: -0.102
ATTAGGAC: 0.151
ACGGACCT: -0.297
AACTTCCG: -0.0142
ATAGAGCG: 0.0559
CGACCAAC: -0.134
ATGCGCAT: 0.302
ACATGGCA: -0.0308
GATAGCGA: 0.0416
GGCGCCGA: -0.295
ATTCCAGC: -0.112
AGTTGGAC: -0.0121
AATTGGTA: 0.193
GCAGACCC: -0.32
ATAGCCTG: -0.00541
ACTACATA: 0.286

Single results of other studies
GSPAKKLFTSTGL  enrichment score (Saccharomyces cerevisiae; peptide binding, yeast competitive growth sequencing; peptide, cyclin F-Cln2 fusion; library 1; direction not given): 0.361

For quick reference, copied from above (series 5):
AATCTCGT: -0.0939
TAAAGATA: -0.0623
GAAGGGTC: -0.0528
GAGTAATA: 0.0324
AAACGTCC: 0.0424
CAGTATCC: -0.0263
AGTGGAAA: -0.116
AACACCTG: -0.141
CGGTACAA: 0.206
AGATTGTA: -0.246
GCGGAAAC: 0.254
ATTCTTGG: -0.0407
